# Results of several laboratories.
# Protocols differ between the studies behind these lines. ± marks the error that the study gave. Ends that are not written are not given here. No end group written: not given here. *: point of attachment.
# B1: UGT1A9 (Homo sapiens, UniProt O60656); chain GKLLVVPMDGSHWFTMRSVVEKLILRGHEVVVVMPEVSWQLGRSLNCTVKTYSTSYTLEDLDREFKAFAHAQWKAQVRSIYSLLMGSYNDIFDLFFSNCRSLFKDKKLVEYLKESSFDAVFLDPFDNCGLIVAKYFSLPSVVFARGILCHYLEEGAQCPAPLSYVPRILLGFSDAMTFKERVRNHIMHLEEHLLCHRFFKNALEIASEILQTPVTEYDLYSHTSIWLLRTDFVLDYPKPVMPNMIFIGGINCHQGKPLPMEFEAYINASGEHGIVVFSLGSMVSEIPEKKAMAIADALGKIPQTVLWRYTGTRPSNLANNTILVKWLPQNDLLGHPMTRAFITHAGSHGVYESICNGVPMVMMPLFGDQMDNAKRMETKGAGVTLNVLEMTSEDLENALKAVINDKSYKENIMRLSSLHKDRPVEPLDLAVFWVEFVMRHKGAPHLRPAAHDLTWYQYHSLDVIGFLLAVVLTVAFITFKCCAYGYRKCLGKKGRVKKAHKSKTH
# B2: LPHN3 N-terminal half, OLF-RBL (Mus musculus); chain GKHNERHPALAAPLRHAERSPGGALPPRHLLQQPAAERSTAHRGQGPRGAARGVRGPGAPGAQIAAQAFSRAPIPMAVVRRELSCESYPIELRCPGTDVIMIESANYGRTDDKICDSDPAQMENIRCYLPDAYKIMSQRCNNRTQCAVVAGPDVFPDPCPGTYKYLEVQYECVPYKVEQKVFLCPGLLKGVYQSEHLFESDHQSGAWCKDPLQASDKIYYMPWTPYRTDTLTEYSSKDDFIAGRPTTTYKLPHRVDGTGFVVYDGALFFNKERTRNIVKFDLRTRIKSGEAIIANANYHDTSPYRWGGKSDIDLAVDENGLWVIYATEQNNGKIVISQLNPYTLRIEGTWDTAYDKRSASNAFMICGILYVVKSVYEDDDNEATGNKIDYIYNTDQSKDSLVDVPFPNSYQYIAAVDYNPRDNLLYVWNNYHVVKYSLDFGPLDSRSGPVHHGQVSYISPPIHLDSELERPPVRGISTTGSLGMGSTTTSTTLRTTTWNIGRSTTASLPGRRNRSTSTPSPAVEVL
# B3: FLRT3 LRR domain 29-357 (Homo sapiens, UniProt Q9NZU0); sequence looked up; chain KSCPSVCRCDAGFIYCNDRFLTSIPTGIPEDATTLYLQNNQINNAGIPSDLKNLLKVERIYLYHNSLDEFPTNLPKYVKELHLQENNIRTITYDSLSKIPYLEELHLDDNSVSAVSIEEGAFRDSNYLRLLFLSRNHLSTIPWGLPRTIEELRLDDNRISTISSPSLQGLTSLKRLVLDGNLLNNHGLGDKVFFNLVNLTELSLVRNSLTAAPVNLPGTNLRKLYLQDNHINRVPPNAFSYLRQLYRLDMSNNNLSNLPQGIFDDLDNITQLILRNNPWYCGCKMKWVRDWLQSLPVKVNVRGLMCQAPEKVRGMAIKDLNAELFDCKD
# B4: RSPO2 22-144 (Homo sapiens, UniProt Q6UXX9); two AlexaFluor488 labels; sequence looked up; chain QGNRWRRSKRASYVSNPICKGCLSCSKDNGCSRCQQKLFFFLRREGMRQYGECLHSCPSGYYGHRAPDMNRCARCRIENCDSCFSKDFCTKCKVGFYLHRGRCFDECPDGFAPLEETMECVEG
# UniProt Q99767, sequence (whole entry, unmodified, looked up): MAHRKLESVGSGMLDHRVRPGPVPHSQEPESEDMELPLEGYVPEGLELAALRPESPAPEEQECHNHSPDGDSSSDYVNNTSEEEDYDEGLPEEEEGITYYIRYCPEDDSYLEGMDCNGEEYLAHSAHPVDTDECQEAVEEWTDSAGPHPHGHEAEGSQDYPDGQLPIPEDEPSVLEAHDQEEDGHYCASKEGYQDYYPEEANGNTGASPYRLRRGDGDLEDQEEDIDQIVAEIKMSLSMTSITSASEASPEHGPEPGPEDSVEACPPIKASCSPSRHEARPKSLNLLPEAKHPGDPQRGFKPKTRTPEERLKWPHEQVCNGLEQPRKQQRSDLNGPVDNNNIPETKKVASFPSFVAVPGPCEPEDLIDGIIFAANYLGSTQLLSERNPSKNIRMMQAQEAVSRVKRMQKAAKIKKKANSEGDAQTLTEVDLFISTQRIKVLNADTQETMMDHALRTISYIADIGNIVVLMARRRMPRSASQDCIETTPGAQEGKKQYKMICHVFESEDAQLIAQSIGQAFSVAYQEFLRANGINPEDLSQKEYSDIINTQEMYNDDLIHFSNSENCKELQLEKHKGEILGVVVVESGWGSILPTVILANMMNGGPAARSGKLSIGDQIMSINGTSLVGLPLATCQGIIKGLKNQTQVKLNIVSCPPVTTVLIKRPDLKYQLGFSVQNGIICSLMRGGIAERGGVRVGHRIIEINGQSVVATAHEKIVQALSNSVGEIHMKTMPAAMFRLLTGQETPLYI
# UniProt Q9GT24, sequence (whole entry, looked up): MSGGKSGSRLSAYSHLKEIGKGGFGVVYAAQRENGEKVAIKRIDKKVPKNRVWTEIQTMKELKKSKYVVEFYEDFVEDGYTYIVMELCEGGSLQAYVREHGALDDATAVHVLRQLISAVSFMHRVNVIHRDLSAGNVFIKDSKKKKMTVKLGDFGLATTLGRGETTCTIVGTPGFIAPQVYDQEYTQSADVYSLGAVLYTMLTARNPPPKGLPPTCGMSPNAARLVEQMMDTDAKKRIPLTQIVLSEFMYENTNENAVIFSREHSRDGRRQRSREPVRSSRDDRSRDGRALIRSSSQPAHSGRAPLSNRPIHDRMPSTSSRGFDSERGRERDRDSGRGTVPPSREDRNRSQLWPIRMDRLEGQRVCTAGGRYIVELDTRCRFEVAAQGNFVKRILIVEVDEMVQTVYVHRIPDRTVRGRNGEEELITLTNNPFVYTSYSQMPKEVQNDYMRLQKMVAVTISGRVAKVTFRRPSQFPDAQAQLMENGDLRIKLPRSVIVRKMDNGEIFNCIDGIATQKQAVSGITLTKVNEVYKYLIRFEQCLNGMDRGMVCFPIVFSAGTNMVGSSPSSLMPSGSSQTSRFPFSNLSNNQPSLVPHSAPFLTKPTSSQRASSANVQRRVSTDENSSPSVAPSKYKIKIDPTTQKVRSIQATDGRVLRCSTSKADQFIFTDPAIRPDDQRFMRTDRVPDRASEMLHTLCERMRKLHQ
# UniProt Q9Y6K9, sequence (whole entry, unmodified, looked up): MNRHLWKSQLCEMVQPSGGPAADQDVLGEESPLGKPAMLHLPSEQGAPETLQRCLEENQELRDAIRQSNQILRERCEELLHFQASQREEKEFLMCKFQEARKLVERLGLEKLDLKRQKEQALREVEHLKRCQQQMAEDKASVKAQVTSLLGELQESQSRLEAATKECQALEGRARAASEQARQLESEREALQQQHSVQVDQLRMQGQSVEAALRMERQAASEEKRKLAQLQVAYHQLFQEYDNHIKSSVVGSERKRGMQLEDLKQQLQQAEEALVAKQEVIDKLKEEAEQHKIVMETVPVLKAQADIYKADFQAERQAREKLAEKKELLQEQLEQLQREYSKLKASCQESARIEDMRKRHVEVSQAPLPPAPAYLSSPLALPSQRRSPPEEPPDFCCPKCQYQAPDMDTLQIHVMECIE
Molecule,tested on,assay,system,setting,quantity,result
{FITC}-SARWRFPARPGTTGGGGGGGRRGLGGAPRQRVPALLLPPGY (KMT2A 4-43 C-A; N-terminal FITC; FITC = O=C1OC2(c3ccc(O)cc3Oc3cc(O)ccc32)c2ccc(NC(=S)*)cc21),"MEN1 T349M (Homo sapiens, UniProt O00255-1)",fluorescence polarisation,peptide,,Kd,2.99 nM
"LDRQEEEEALQDQKRREEELGRIMVNAFDDLLDEENTIDS (asl 21-60 (Drosophila melanogaster, UniProt Q9VNE4); sequence looked up)","zyg-1 cryptic polo box 338-564 (Caenorhabditis elegans, UniProt Q9GT24)",MST,,,Kd,197000 nM
"PAKKSEELVAEAHNLSTLLENAIQDTVREQDQSFAALDWSWLQTE (IKBKB 701-745 C716S/T735A (Homo sapiens, UniProt O14920); sequence looked up)","IKBKG 2-419 C11A/C76A/C95A/C131A/C167A (Homo sapiens, UniProt Q9Y6K9)","competition with labelled peptide, fluorescence polarisation",,pH 7.4,Kd,13 nM
B1 (UGT1A9),COc1cc(O)c2c(=O)c(O)c(-c3ccc(O)c(O)c3)oc2c1,steady-state kinetics,,"pH 7.4, 37 °C",Km,0.23 µM
"B2 (LPHN3 N-terminal half, OLF-RBL)","FLRT3 LRR domain 29-386, N-linked glycosylation (Mus musculus, UniProt Q8BGT1)",ITC,,"pH 7.0, 25 °C, NaCl 150 mM",Kd,34.2 ± 7.5 nM
B3 (FLRT3 LRR domain 29-357),"ADGRL3 20-1447 Y249A/D251A/T252A/R308A (Homo sapiens, UniProt Q9HAR2)",flow cytometry,HEK293,"100 nM, tetramerised, avidity, in cells",Kd,> 10000 nM
EPB41 fragment (Homo sapiens),SLC9A1 residues 506-575 (Rattus norvegicus),resonant mirror,,kinetic analysis,Kd,214 ± 17 nM
{TAMRA}-NNGQNGYENPTYKFFEQMQN (APP peptide residues 754-770 (Homo sapiens); N-terminal TAMRA),"APBA2 364-570 Y459A/F520A (Homo sapiens, UniProt Q99767)",fluorescence polarisation,peptide,added: TAMRA-labelled APP peptide 50 nM,Kd,895000 ± 43000 nM
B4 (RSPO2 22-144),"LGR4 fragment, terbium chelate label (Homo sapiens)",TR-FRET,,"saturation binding, one-site fit, added: labeled B 10 nM",Kd,120 nM
ARTK(Me3)QTARKSTGGKAY (histone H3 2-16 (UniProt P68431); not fully specified; K4me3; Me3 = Me3: trimethyl-lysine (trimethylated lysine)),"KMT2A 1564-1628 (Homo sapiens, UniProt Q03164)",ITC,peptide,"pH 7.2, 25 °C, NaCl 50 mM",Kd,30900 nM
"GGVK(Me3)KPLR-NH2 (H3 peptide residues 33-40 H39L; K36me3, C-terminal amide; Me3 = trimethyl (on lysine, Kme3))","PHF1 25-87 (Homo sapiens, UniProt O43189-1)",ITC,peptide,"pH 7.5, 25 °C, NaCl 150 mM",Kd,18700 nM

# Repeated from above:
Molecule,tested on,assay,system,setting,quantity,result
{FITC}-SARWRFPARPGTTGGGGGGGRRGLGGAPRQRVPALLLPPGY (KMT2A 4-43 C-A; N-terminal FITC; FITC = O=C1OC2(c3ccc(O)cc3Oc3cc(O)ccc32)c2ccc(NC(=S)*)cc21),"MEN1 T349M (Homo sapiens, UniProt O00255-1)",fluorescence polarisation,peptide,,Kd,2.99 nM
